Assay results of several laboratories.
Compare with care: the assays were run in different laboratories. Values joined by “and” are separate records of one study, mostly repeats; a detail may differ. ± marks the error that the study gave.

SMILES | host | sample | route | dose | time | notes | plasma concentration
[2H]C([2H])([2H])C1(C([2H])([2H])[2H])NC(=O)N(c2ccc(F)c(C(C)(F)F)c2)C1=O | male Swiss outbred mice | plasma | oral | 100 mg/kg | 48 h |  | 32100 ± 1690 ng/mL
O=C1C2CC3CC1CC(C(=O)N1CCN(c4ccc([N+](=O)[O-])c5ncccc45)CC1)(C3)C2 | male ICR mice | plasma | intravenous | 1 mg/kg | 0.0833 h |  | 497 ng/mL
C=CC(=O)N1CCCC(n2c(=O)c3ncccc3n(Cc3ccc(Oc4ccccc4)cc3)c2=O)C1 (stereo not drawn) | male BALB/c mice | plasma | intraperitoneal | 200 mg/kg | 1 h |  | 97300 ng/mL and 89400 ng/mL
C=C[C@]1(C)C[C@@H](OC(=O)CSc2ccc(NC(=O)c3ccco3)cc2)[C@]2(C)[C@H](C)CC[C@]3(CCC(=O)[C@H]32)[C@@H](C)[C@@H]1O | Mycoplasma gallisepticum-infected chickens | plasma | intramuscular | 5 mg/kg | 8 h |  | 41.9 ng/mL and 13 ng/mL and 18.6 ng/mL and 27 ng/mL and 6.07 ng/mL and 46.1 ng/mL and 33.7 ng/mL and 30 ng/mL
CCC(=O)N(C)c1ccc(Cl)c(Cl)c1 | female C57BL/6 mice |  | intravenous | 2 mg/kg | 2 h |  | 22.4 ng/mL and 19.3 ng/mL
Cc1noc(C)c1Cn1cc(N2C(=O)CN(Cc3cccc(OS(=O)(=O)O)c3)C2=O)cn1 | rat Sprague-Dawley male | plasma | oral | 100 mg/kg of parent drug | 0.5 h |  | 555 ± 153 ng/mL
Cc1nn(-c2nc3c(F)cc(F)cc3s2)c(O)c1C(c1ccc(C(F)(F)F)cc1)c1c(C)nn(-c2nc3c(F)cc(F)cc3s2)c1O | ICR mouse |  | intraperitoneal | 10 mg/kg | 0.25 h | below LLOQ | 617 ng/mL and 539 ng/mL and 540 ng/mL
O=C1CCC(N2Cc3cc(C(=O)O)c(F)cc3C2=O)C(=O)N1 (stereo not drawn) | cynomolgus monkey, male |  | oral | 0.3 mg/kg parent drug | 2 h |  | 7.1 ± 6.1 ng/mL
O=C(NS(=O)(=O)c1cccs1)c1cc2ccccc2n1Cc1ccc(Br)c2ccccc12 | rats |  | oral | dose not given | 24 h |  | not detected

Repeated from above:
SMILES | host | sample | route | dose | time | notes | plasma concentration
Cc1nn(-c2nc3c(F)cc(F)cc3s2)c(O)c1C(c1ccc(C(F)(F)F)cc1)c1c(C)nn(-c2nc3c(F)cc(F)cc3s2)c1O | ICR mouse |  | intraperitoneal | 10 mg/kg | 0.25 h | below LLOQ | 617 ng/mL and 539 ng/mL and 540 ng/mL
